Results of several laboratories.
Each line is one published result; not all experiments were run side by side. “And” joins repeats or separate records; there may be more than shown.
Target: SRSF protein kinase 3 (SRPK3, Homo sapiens, UniProt Q9UPE1)
Sequence of UniProt Q9UPE1 (whole entry, looked up): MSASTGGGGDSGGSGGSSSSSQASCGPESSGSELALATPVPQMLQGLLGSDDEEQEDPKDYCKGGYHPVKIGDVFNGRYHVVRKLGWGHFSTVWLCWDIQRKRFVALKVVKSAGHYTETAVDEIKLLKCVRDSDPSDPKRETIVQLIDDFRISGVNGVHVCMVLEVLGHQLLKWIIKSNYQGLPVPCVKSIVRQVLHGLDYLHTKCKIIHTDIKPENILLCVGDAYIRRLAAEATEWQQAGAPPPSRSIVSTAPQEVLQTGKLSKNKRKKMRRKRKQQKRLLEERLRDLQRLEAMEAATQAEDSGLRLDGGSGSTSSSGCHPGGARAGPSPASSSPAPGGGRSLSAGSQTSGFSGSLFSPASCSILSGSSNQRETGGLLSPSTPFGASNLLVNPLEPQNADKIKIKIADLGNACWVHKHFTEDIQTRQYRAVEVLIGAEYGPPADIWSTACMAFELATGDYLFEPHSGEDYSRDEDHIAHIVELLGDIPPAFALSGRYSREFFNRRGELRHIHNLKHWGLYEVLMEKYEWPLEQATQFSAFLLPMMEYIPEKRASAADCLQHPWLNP

`CNC1C[S+]2CC[S+]3CC[S+](C1)[Ru-4]321([N]=C=S)[n]2c3ccc(OC)cc3c3c4c(c5cc(F)c[n+]1c5c32)C(=O)NC4=O` (stereo not drawn) gave a remaining binding of 93% (KinomeScan; 0.1 µM; relative to: untreated).
`CCN1CCN(Cc2ccc(C(=O)Nc3ccc(C)c(NCc4cnc5[nH]ccc5c4OC)c3)cc2C(F)(F)F)CC1` gave a remaining binding of 98% (binding, competition with immobilised ligand; 1 µM).
For `COc1ccc(NC(=O)Nc2ccc3c(c2)C(=O)N(C(C)CO)CC(C)C(CN(C)Cc2ccc4c(c2)OCO4)O3)cc1` (stereo not drawn), the remaining activity was 95% (kinase activity, KinaseProfiler; 0.03 µM, species human; relative to: control).
With `COc1cc(Nc2nccc(-c3cnn4nc(OC)ccc34)n2)cc(C(F)(F)F)c1` the remaining binding was 98% (binding, competition with immobilised ligand; 1 µM).
`O=C(Nc1ccccc1)Nc1cccc(O)c1` gave a Hill slope of 1.07 (kinase activity, Z'-LYTE).
The remaining binding of `C=CC(=O)N1CCc2ccc(-n3c(=O)ccc4cnc5ccc(-c6cnn(C)c6)cc5c43)cc21` is reported as 95% (KINOMEscan; 1 µM; relative to: DMSO control).
The inhibition of `COc1cccc(NC(=O)Nc2ccccc2O)c1` is reported as 72% (enzyme activity, inhibitor, FRET; 10 µM).
`CNS(=O)(=O)Nc1nccc(Cc2c(C)c3ccc(Oc4ncccc4F)cc3oc2=O)c1F` gave a remaining binding of 96% (binding, competition with immobilised ligand; 10 µM).
`O=C(Nc1ccccc1)Nc1ccc(Cl)cc1` has an inhibition of 77% (binding, KINOMEscan competitive binding; concentration not given).
For `CC(C)=CC1OC(C)(C)C2C=C3C(=O)C(Cl)=CC(O)C3C3C(O)C4OC4C(=O)C132` (stereo not drawn), the remaining binding was 78% (cell-free assay, competition with immobilised ligand; 10 µM).
With `Cc1cnc2nc1Nc1cccc(c1)COC/C=C/COCc1cc(ccc1OCCN1CCOCC1)N2` the remaining binding was 94% (binding, competition with immobilised ligand; 0.1 µM).
For `CN1CCN(Cc2ccc(NC(=O)c3cccc(C#Cc4cnc(N)c5ncccc45)c3)cc2C(F)(F)F)CC1`, the remaining binding was 65% (cell-free assay, competition with immobilised ligand; 0.5 µM).
`COc1cccc(NC(=O)Nc2ccccc2)c1` has an inhibition of 89% (binding, KINOMEscan competitive binding; concentration not given).
For `O=C(Cc1ccc(OCc2ccccc2)cc1)NC1(C(=O)O)CCN(C(=O)c2ccc(-c3cccc(Cl)c3)cc2)CC1`, “activity vs control” read 175% (enzyme activity, inhibitor; 10 µM).
With `COCC12C(=O)NC3C4(C(OC)CC1O)C1CC5(O)C(OC)C(O)C(OC(C)=O)(C1C5OC(=O)c1ccccc1)C3(O)C(OC)C24` (stereo not drawn) the remaining activity was 97% and 89% (kinase activity, inhibitor, ProQinase kinase profiling; 25 µM; relative to: control).
`N#Cc1ccc(NC(=O)Nc2ccccc2)cc1` has an inhibition of 51.5% (enzyme activity, inhibitor, FRET; 10 µM).
The inhibition of `C=CC(=O)Nc1cccc(-c2cnc3[nH]cc(C(=O)NC(C)(C)C)c3n2)c1` is reported as 2% and -2% (kinase activity; 0.1 µM).
`CNC(=O)C1CCN(c2cc(C)c(F)cc2NC(=O)c2ccc(-c3cc(O)ccc3C)c(C)c2)CC1` gave a remaining binding of 84% (binding, competition with immobilised ligand; 1 µM).

For quick reference, copied from above:
`O=C(Nc1ccccc1)Nc1cccc(O)c1` gave a Hill slope of 1.07 (kinase activity, Z'-LYTE).
The remaining binding of `C=CC(=O)N1CCc2ccc(-n3c(=O)ccc4cnc5ccc(-c6cnn(C)c6)cc5c43)cc21` is reported as 95% (KINOMEscan; 1 µM; relative to: DMSO control).
The inhibition of `COc1cccc(NC(=O)Nc2ccccc2O)c1` is reported as 72% (enzyme activity, inhibitor, FRET; 10 µM).
